Measurements pooled from the literature.
Compare with care: the assays were run in different laboratories.

Substance | technique | item | temperature | setting | pKa
iscU apo (Escherichia coli, UniProt P0ACD4) | NMR titration | His10 | 25 °C | NaCl 150 mM, S-state, averaged, apo | < 5.3
PRL (Homo sapiens, UniProt P01236) | NMR | His27 | 35 °C | 25 mM NaCl, apparent; independent-site fit, numbering of the source | 6.58
ksi D40V/D103N (Pseudomonas putida) | UV-vis | Tyr57 | 25 °C | – | 8.5
CRYGD P23T (Homo sapiens) | NMR | His121 | 25 °C | numbering of the source | 6.21
ORF56 (Sulfolobus islandicus, UniProt Q54323) | NMR | Glu31 | – | free native homodimer, low salt | 4.59
nuc G50F/V51N/P117G/H124L/S128A/del44-49 (Staphylococcus aureus) | NMR | His8 | 298 K | KCl 100 mM, numbering of the source | 6.6
ksi D40N/M116A (Pseudomonas putida) | UV-vis | Tyr57 | 25 °C | – | 5.9
proteorhodopsin, retinal (uncultured gamma-proteobacterium EBAC31A08, UniProt Q9F7P4) | UV-vis | Asp97 | – | NaCl 100 mM, large POPC nanodisc, monomeric | 7.1
CRYGD (Homo sapiens, UniProt P07320) | NMR | His15 | 25 °C | numbering of the source | 6.69
CISD1 soluble cytoplasmic domain (Homo sapiens, UniProt Q9NZ45) | UV-vis | His87 | – | NaCl 100 mM, cluster reduced | 12.4
ksi D40R/D103N (Pseudomonas putida) | UV-vis | Tyr57 | 25 °C | – | 8.2
PCSK1 propeptide domain (Homo sapiens, UniProt P29120) | mass spectrometry | His72 | – | apparent, histidine H/D exchange, pepsin digest | 5.61
ksi Y16F/D40R/F56A/D103A (Pseudomonas putida) | UV-vis | Tyr57 | 25 °C | – | > 10
WT1 zinc finger 4 (Homo sapiens, UniProt P19544) | NMR | Cys5 | 288 K | KCl 10 mM, apo, unfolded, reduced, numbering of the source | 8
ksi D40R/F56A/D103N (Pseudomonas putida) | UV-vis | Tyr57 | 25 °C | – | 5.9
PBP1 mature (Amyelois transitella) | NMR | His80 | 25 °C | free protein; not delipidated | 6

Repeated from above:
Substance | technique | item | temperature | setting | pKa
CISD1 soluble cytoplasmic domain (Homo sapiens, UniProt Q9NZ45) | UV-vis | His87 | – | NaCl 100 mM, cluster reduced | 12.4
